Experimental data of several laboratories.
A part holds a random share of what one study measured. Values joined by “and” are separate records of one study, mostly repeats; a detail may differ.
UniProt P08908, sequence (whole entry, looked up): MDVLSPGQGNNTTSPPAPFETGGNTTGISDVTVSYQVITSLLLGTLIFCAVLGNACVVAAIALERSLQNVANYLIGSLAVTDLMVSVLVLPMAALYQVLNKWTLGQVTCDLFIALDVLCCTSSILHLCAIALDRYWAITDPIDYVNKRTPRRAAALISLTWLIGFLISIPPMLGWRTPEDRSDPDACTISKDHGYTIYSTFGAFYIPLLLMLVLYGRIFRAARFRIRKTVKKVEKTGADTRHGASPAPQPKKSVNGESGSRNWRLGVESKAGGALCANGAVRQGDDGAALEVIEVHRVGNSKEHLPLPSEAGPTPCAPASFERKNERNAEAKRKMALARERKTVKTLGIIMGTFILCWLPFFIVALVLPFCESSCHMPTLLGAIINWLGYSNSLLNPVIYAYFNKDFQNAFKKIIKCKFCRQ
UniProt Q9UQM7, sequence (whole entry, looked up): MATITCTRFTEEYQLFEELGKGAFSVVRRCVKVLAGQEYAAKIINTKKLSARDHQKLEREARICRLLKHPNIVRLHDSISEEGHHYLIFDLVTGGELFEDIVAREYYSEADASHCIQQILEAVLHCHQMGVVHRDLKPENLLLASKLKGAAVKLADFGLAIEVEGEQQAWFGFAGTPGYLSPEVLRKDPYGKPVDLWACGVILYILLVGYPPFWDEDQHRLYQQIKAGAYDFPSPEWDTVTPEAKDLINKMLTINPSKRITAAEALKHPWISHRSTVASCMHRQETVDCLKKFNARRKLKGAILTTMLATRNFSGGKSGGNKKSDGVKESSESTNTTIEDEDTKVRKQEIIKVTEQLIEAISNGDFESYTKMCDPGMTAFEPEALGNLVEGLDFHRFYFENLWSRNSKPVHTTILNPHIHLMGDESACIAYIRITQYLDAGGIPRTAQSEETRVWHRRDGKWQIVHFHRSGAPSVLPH
UniProt P62344, sequence (whole entry, looked up): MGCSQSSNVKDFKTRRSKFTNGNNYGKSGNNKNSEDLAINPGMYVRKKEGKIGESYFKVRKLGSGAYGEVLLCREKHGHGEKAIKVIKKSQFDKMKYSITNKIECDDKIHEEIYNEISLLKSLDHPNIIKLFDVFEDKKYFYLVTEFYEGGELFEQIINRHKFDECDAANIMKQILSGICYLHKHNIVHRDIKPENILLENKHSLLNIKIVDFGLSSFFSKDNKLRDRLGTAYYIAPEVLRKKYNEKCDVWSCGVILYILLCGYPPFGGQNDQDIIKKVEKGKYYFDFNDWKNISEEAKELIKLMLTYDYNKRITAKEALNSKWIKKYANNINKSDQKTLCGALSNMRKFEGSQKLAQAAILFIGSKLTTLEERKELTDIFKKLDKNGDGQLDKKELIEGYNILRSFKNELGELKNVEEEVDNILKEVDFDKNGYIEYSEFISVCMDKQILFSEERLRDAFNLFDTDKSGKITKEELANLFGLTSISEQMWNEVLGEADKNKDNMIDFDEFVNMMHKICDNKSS
UniProt P08912, sequence (whole entry, looked up): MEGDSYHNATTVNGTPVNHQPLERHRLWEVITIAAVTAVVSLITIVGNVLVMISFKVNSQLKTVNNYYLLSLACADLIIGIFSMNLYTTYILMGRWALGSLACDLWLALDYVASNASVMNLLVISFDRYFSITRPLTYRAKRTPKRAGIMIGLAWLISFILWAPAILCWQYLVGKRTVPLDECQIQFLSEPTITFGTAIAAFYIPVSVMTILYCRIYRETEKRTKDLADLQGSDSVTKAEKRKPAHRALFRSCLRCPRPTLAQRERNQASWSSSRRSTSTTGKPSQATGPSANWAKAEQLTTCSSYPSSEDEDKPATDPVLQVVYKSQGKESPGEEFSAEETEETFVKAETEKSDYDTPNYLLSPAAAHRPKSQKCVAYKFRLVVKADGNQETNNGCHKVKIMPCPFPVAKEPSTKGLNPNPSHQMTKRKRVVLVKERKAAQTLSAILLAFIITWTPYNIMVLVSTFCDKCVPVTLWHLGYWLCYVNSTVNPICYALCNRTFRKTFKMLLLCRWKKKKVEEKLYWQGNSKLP
UniProt P28223, sequence (whole entry, looked up): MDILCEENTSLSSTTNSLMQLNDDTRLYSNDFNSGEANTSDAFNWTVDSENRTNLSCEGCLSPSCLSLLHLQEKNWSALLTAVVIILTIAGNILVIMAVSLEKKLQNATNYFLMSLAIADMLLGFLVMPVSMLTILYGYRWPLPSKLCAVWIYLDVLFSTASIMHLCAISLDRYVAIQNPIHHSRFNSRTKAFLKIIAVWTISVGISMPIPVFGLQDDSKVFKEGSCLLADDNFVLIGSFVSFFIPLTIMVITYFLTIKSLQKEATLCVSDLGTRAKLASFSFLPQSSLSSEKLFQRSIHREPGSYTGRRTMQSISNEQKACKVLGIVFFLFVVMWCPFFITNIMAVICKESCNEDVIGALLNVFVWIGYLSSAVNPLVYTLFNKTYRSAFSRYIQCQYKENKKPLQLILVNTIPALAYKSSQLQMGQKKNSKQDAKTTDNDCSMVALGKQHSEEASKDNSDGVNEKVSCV

Study 1 — read-out: RNA clamping; technique: fluorescence polarization; tested at: concentration not given; together with: FAM-labelled poly r(AG)8 RNA; measurement: fluorescence polarization change
Target: Eukaryotic initiation factor 4A-III (Homo sapiens, UniProt P38919)
UniProt P38919, sequence (whole entry, looked up): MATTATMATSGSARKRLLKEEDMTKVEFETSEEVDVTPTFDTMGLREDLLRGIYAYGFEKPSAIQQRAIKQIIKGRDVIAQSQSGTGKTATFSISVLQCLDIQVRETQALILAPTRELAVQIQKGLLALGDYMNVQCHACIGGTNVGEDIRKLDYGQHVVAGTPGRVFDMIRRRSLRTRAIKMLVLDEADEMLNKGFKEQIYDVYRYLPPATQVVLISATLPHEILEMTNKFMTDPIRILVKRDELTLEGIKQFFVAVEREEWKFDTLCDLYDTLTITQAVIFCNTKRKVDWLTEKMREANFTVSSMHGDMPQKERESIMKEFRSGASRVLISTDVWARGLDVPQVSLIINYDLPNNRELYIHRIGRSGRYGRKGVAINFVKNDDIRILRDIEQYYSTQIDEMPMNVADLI
COc1ccc([C@@]23Oc4cc(OC)cc(OC)c4[C@]2(O)c2nc(-c4ccccc4)[nH]c(=O)c2[C@@H]3c2ccccc2)cc1: 3.1 mP
COc1ccc([C@@]23Oc4cc(OC)cc(OC)c4[C@]2(O)c2nc(-c4ccc(C(F)(F)F)cc4)[nH]c(=O)c2[C@H]3c2ccccc2)cc1: 7.3 mP and 9.2 mP
COC(=O)[C@@H]1[C@@H](c2ccccc2)[C@]2(c3ccc(OC)cc3)Oc3cc(OC)cc(OC)c3[C@@]23N=C(C)N[C@@]13O: 64.9 mP and 60 mP
COC(=O)[C@@H]1[C@@H](c2ccccc2)[C@]2(c3ccc(Br)cc3)Oc3cc(OC)cc(OC)c3[C@@]1(O)C2(O)O: -1.9 mP
COc1ccc([C@@]23Oc4cc(OC)cc(OC)c4[C@]2(O)c2nc(Cc4ccccc4)[nH]c(=O)c2[C@H]3c2ccccc2)cc1: 17.6 mP
COc1ccc([C@@]23Oc4cc(OC)cc(OC)c4[C@@]24NC(C)=N[C@@]4(O)[C@H](C(=O)N(C)OC)[C@H]3c2ccccc2)cc1: 80.1 mP
COc1ccc([C@@]23Oc4cc(OC)cc(OC)c4[C@]2(O)[C@H](O)C[C@H]3c2ccccc2)cc1: 41.2 mP
COC(=O)[C@H]1[C@@H](O)[C@@]2(O)c3c(OC)cc(OC)cc3O[C@@]2(c2ccc(OC)cc2)[C@@H]1c1ccccc1: 24.2 mP and 50 mP

Study 2 — cell line: mouse MPNST tumor cells; technique: high-content nuclear imaging; refers to: cell number; tested at: 10 µM; time: 12 h; setting: mean of 2 replicates; relative to: plate mean; direction: higher = more cells; measurement: nuclei count
CCN1C[C@]2(COC(=O)c3ccccc3N3C(=O)C[C@H](C)C3=O)CC[C@H](OC)[C@@]34[C@@H]5C[C@H]6[C@H](OC)[C@@H]5[C@](O)(C[C@@H]6OC)[C@](O)([C@@H](OC)[C@H]23)[C@@H]14: 0.495 z-score
c1ccc2c(c1)Nc1ccccc1S2: 0.474 z-score
CC[C@@]1(O)C(=O)OCc2c1cc1n(c2=O)Cc2cc3ccccc3nc2-1: -3.38 z-score
CCCC(C)C1(CC)C(=O)NC(=O)NC1=O (stereo not shown): -0.174 z-score
OCC[N+]12CN3CN(CN(C3)C1)C2: 2.05 z-score
CCCC[N+]1(C)C2CC(OC(=O)C(CO)c3ccccc3)CC1C1OC12 (stereo not shown): 0.859 z-score

Mixed results
Cc1nc(C2CCN(C(=O)c3ccc(OC(F)(F)F)cc3N)CC2)c2ncc(N3CCN(C)CC3)cc2n1 — inhibition (5-hydroxytryptamine receptor 2A (HTR2A, Homo sapiens, UniProt P28223); binding, radioligand binding; 10 µM): 4.68%
c1cncc([C@@H]2CCCCN2)c1 — inhibition (Calcium/calmodulin-dependent protein kinase type II subunit alpha (CAMK2A, Homo sapiens, UniProt Q9UQM7); enzyme activity, inhibitor; 10 µM): 5%
CO[C@H]1CC[C@H](CNc2ccc(S(=O)(=O)NC(=O)c3ccc(N4CCN(CC5=C(c6ccc(Cl)cc6)CC(C)(C)CC5)CC4)cc3Oc3cnc4[nH]ccc4c3)cc2[N+](=O)[O-])CC1 — remaining binding (Calcium-dependent protein kinase 1 (CDPK1, Plasmodium falciparum, UniProt P62344); cell-free assay, competition with immobilised ligand; 1 µM): 80%
CNC(=N)NCCC[C@H](NC(=O)[C@H](CC(C)C)NC(=O)NNC(=O)[C@H](Cc1ccccc1)NC(=O)[C@H](CO)NC(=O)[C@H](CC(N)=O)NC(=O)[C@@H](Cc1cccnc1)NC(=O)[C@H](N)Cc1ccc(O)cc1)C(=O)NCC(N)=O — inhibition (5-hydroxytryptamine receptor 1A (HTR1A, Homo sapiens, UniProt P08908); ligand displacement, radioligand; 10 µM): 30.9%
CNC(=O)c1cc(C(=O)NC2CC2)cn(Cc2ccccc2)c1=O — inhibition (Muscarinic acetylcholine receptor M5 (CHRM5, Homo sapiens, UniProt P08912); binding, radioligand binding; 10 µM): -5.05%

Repeated from above (mixed results):
Cc1nc(C2CCN(C(=O)c3ccc(OC(F)(F)F)cc3N)CC2)c2ncc(N3CCN(C)CC3)cc2n1 — inhibition (5-hydroxytryptamine receptor 2A (HTR2A, Homo sapiens, UniProt P28223); binding, radioligand binding; 10 µM): 4.68%
CNC(=N)NCCC[C@H](NC(=O)[C@H](CC(C)C)NC(=O)NNC(=O)[C@H](Cc1ccccc1)NC(=O)[C@H](CO)NC(=O)[C@H](CC(N)=O)NC(=O)[C@@H](Cc1cccnc1)NC(=O)[C@H](N)Cc1ccc(O)cc1)C(=O)NCC(N)=O — inhibition (5-hydroxytryptamine receptor 1A (HTR1A, Homo sapiens, UniProt P08908); ligand displacement, radioligand; 10 µM): 30.9%
CNC(=O)c1cc(C(=O)NC2CC2)cn(Cc2ccccc2)c1=O — inhibition (Muscarinic acetylcholine receptor M5 (CHRM5, Homo sapiens, UniProt P08912); binding, radioligand binding; 10 µM): -5.05%
